Experimental data pooled from the literature.
A part holds a random share of what one study measured. Positions count from the first letter of the parent shown.
UniProt O15294, sequence (whole entry, looked up): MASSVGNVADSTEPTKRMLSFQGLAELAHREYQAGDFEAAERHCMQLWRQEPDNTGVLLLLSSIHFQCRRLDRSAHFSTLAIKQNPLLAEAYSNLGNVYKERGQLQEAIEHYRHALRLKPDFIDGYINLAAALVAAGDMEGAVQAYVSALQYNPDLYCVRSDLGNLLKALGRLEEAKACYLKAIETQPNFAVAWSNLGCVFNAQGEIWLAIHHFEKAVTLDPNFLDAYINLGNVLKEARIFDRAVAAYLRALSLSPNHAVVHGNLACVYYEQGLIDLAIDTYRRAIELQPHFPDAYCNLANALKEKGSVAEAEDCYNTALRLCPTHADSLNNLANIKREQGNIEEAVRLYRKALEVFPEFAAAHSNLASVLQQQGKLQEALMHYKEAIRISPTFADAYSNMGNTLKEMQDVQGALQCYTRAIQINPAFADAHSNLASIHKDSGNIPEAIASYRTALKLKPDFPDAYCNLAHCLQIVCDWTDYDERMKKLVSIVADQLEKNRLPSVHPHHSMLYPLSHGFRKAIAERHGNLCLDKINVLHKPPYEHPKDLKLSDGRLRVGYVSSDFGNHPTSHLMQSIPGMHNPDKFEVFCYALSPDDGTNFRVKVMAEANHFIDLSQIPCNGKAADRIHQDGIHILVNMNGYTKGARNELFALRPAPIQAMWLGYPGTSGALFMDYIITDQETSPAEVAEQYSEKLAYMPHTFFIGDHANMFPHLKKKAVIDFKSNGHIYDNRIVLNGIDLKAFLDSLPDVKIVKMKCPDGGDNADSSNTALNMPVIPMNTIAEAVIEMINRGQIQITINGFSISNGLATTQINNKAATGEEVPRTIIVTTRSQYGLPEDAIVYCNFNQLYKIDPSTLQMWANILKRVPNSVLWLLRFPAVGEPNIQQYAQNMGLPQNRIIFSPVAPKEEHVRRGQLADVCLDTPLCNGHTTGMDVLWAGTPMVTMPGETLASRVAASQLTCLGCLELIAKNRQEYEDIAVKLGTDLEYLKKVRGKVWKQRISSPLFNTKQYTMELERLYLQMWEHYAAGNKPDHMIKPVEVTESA

Study 1
Target: Ras GTPase-activating protein-binding protein 1, full length (G3BP1, Homo sapiens, UniProt Q13283)
UniProt Q13283, sequence (whole entry, looked up): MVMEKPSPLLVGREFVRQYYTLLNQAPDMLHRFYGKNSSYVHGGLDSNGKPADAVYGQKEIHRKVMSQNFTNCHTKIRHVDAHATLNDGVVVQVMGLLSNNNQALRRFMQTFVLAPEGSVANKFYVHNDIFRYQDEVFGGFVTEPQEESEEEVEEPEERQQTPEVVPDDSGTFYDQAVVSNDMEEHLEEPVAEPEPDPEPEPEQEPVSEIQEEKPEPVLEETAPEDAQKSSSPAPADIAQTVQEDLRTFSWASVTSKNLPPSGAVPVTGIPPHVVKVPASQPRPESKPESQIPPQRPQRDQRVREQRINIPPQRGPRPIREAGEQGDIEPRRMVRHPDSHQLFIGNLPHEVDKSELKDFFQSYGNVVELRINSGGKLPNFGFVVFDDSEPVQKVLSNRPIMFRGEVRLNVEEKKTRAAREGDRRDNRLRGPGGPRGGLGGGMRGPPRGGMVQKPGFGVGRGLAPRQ
Technique: RNA Bind-n-Seq
Form: RNA
Sample: in vitro
Concentration: 200 nM
Setting: whole 134-nt RNA, ends assumed
Added: 150 mM LiCl
Reference: input library
Direction: higher = stronger binding
Library: 7-deaza-guanosine replaces G
Shared flanks, not repeated: GGGAGUUCUACAGUCCGACGAUC … UGGAAUUCUCGGGUGUCAAGG
Strand | log2 enrichment
UGGCCCUGGUGGCAUGCGGGGAGGAAGAGGUGGCCUCAUGGAUCGUGGUGGUCCCGGUGGGAUGUUCAGAGGUGGCCGUGGUGGAGACAG | 0.41
UGUAACCUGGGGAUUCUCUCAACUCUCUUGUCCCACACAGACUUCUAUGAGGAAAUCCAGGAGUUUGUGAAAGAUGUCUUUUCACCUAUA | 0.792
ACCAUGCAGGUCGGCAUCUUUGGGAAGUGGGGCAAGGGGGGGAUAGGGAGGGGGGUAACACUUUGGGAACAGGUGGUCCCAGGUCGUUUC | 0.224
UCCUCAAGUCCUGUGCUACACAUCGUAUGUACCGAAUCGGGAGGAGGAGGGAAAGUAUUAUGUUACGCCGUUCGGAUCUGCACUUCCAGC | -0.508
CAAGUCCUGUGCUACACAUCGUAUGUACCGAAUCGGGUUUGGUUUGGGGUUUGGGAAAGUAUUAUGUUACGCCGUUCGGAUCUGCACUUC | -1.34
UUUAGCCUGUGGAAUGAUAGCAGUAGGGUCCUGCAAUGGAGAUGUAACUUCCACUAUCCUUCAGACCAUCAUGGAGAAGUCAGAGACUGA | -0.849
AGUCCUGUGCUACACAUCGUAUGUACCGAAUCGGGUUUUGGGUUUUGGGGUUUUGGGAAAGUAUUAUGUUACGCCGUUCGGAUCUGCACU | -0.515
AAGUCCUGUGCUACACAUCGUAUGUACCGAAUCGGAAAAAGGUUUGGUUUUUUUGGAAAGUAUUAUGUUACGCCGUUCGGAUCUGCACUU | -2.07

Study 2
Target: RNA binding protein fox-1 homolog 2, RRM domain, GST-SBP tag (RBFOX2, Homo sapiens, UniProt O43251-10, residues 100-194)
Technique: RNA Bind-n-Seq
Form: RNA
Sample: in vitro
Concentration: 365 nM
Setting: natural RNA segment, single round, ends assumed
Reference: no-protein control
Direction: higher = stronger binding
Shared flanks, not repeated: GGGAGUUCUACAGUCCGACGAUC … UGGAAUUCUCGGGUGCCAA
Target sequence (chain): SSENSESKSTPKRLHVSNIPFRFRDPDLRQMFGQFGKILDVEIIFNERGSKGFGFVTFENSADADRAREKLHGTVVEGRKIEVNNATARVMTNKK
Strand | RBNS enrichment (R)
CACCGAGAAGACAAGGGAAGGUCUUCCCCCCAGAGGCACAUUCCUGUCCGUCUUUCUGCUGCACACCUGGACCAAGCUUGCAGGCUGCCAGACUCACUCAACCUCCAGAG | 1.39
UGAGGACCUGCAUCUUGCAGAUGAUGUAGCAAGCCUUAGGAUGGUUCAUGAUCAGUAGGAAGCAAAUUCUAAGACCUCAGGGUGUCUUUCUGAGUCUCUCAUUUCUUUAG | 0.397
AACCUAUCUGUAAAAUCAGAUGUUUUUUCUUUGUAGAGAAGGAUUUCUGGUGCUUUUGCUUACUAAGAGACCGAUAUUCUUAAGUUGUUUUCUUGUUUUAACAGCCUUGA | 0.453
ACAGGAAAUAACACUUCAGGAGGAACUGAAACUAGCUAAGCCUUCCUUUUUAGCAAGUAAACCUUGAACUUGGUCAGUGUGGAUAUUUCUGCUAGGCUGACGACUAAGCU | 0.301
ACAACCUCUUCAAAGUACCCUUGGAAAUUGAAGUUCAAUCUUAAGUUUUUUGCUGUCUUUAAUUUACUAGAAUUGCCUAAUUUUUAGUUGAUUUCUCUACAGAGCUUAGC | 0.334
AUGUUAGGUAUUUAAAUUCUUAAAGAUGUUGGGUUGUUUAUUAGUGGUAUUUUUAUGUUGUCUUAUUUUAGGUAAGCUUCUGUGUAAAGCUAAAAAUCCUGUGAAUACAA | 0.551
UUGAAAACAUUAUACUUGUAUCCAUUUUCCUCUGUUCAACAAAGAGAAAGUUCAAGUUAGCUUCAGUCCUUCAGUGAUAGGCAACCUAGGUUUUCUAGAGUUUAAUUCUU | 0.361
CUGCCACAGGAUUUGCUAAUGUCUGAUGAUCAUGUUCACAGAGAACAUGGGUGAUUACUUGCAGCCAUCCCAGGUGUUUUAGUUUUGCCAAGCUGACUGUGGUAUGUAGC | 0.526

Study 3
Change: Y18F
Target: ABI1, truncated, D143A, DHFR fusion (Arabidopsis thaliana)
Technique: DHFR PCA, deep sequencing
Sample: yeast
Setting: methotrexate growth selection, single substitutions
Reference: wild-type fitted maximum
Direction: higher = stronger binding
Parent: PYL1, truncated, DHFR fusion (Arabidopsis thaliana); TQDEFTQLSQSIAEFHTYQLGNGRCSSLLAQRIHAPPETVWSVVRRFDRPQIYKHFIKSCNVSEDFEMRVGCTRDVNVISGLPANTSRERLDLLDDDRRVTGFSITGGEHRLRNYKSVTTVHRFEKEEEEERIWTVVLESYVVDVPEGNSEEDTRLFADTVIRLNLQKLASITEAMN; partner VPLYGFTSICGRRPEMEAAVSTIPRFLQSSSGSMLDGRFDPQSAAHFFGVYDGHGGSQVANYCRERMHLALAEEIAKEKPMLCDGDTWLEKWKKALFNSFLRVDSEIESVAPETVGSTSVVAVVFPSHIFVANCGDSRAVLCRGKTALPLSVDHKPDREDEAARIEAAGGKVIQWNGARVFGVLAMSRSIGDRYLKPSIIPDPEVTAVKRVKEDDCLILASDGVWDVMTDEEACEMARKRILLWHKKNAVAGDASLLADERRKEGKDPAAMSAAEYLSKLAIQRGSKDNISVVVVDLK
added | relative binding score [%]
(+)-ABA 200 µM | 89.5
(+)-ABA 2500 µM | 104
(+)-ABA 710 µM | 100
(+)-ABA 17 µM | 59.5
(+)-ABA 0.39 µM | 1.88
(+)-ABA 4.8 µM | 27.6

Other studies, line by line
Sequence | target | assay | system | setting | how to read | measurement | value
IHYEPQYPITYKTYT | UDP-N-acetylglucosamine--peptide N-acetylglucosaminyltransferase 110 kDa subunit (OGT, Homo sapiens, UniProt O15294) | binding, phage display NGS | peptide | concentration not given | reference: input library | enrichment fold change | 3.25
